Results of several laboratories.
Parts stem from different laboratories: compare values within a part only. Changes are numbered by the printed parent chain.

Block 1
Substance: PhoQ, residues 284 288 289 292 302 303 TLASMF
Technique: Sort-seq
Measured: YFP reporter
Sample: E. coli
Setting: PhoQ-PhoP variant library
Added: 10 µM Mg2+
Relative to: high Mg2+ state
Reading: higher = stronger signaling
| target | fold induction |
| --- | --- |
| PhoP, residues 12 14 15 18 19 TPWTL (Escherichia coli, UniProt P23836) | 4.25 |
| PhoP, residues 12 14 15 18 19 LHHYF (Escherichia coli, UniProt P23836) | 15.6 |
| PhoP, residues 12 14 15 18 19 VGHWL (Escherichia coli, UniProt P23836) | 0.959 |
| PhoP, residues 12 14 15 18 19 NFFVT (Escherichia coli, UniProt P23836) | 3.02 |

Block 2
Target: Ras GTPase-activating protein-binding protein 1, full length (G3BP1, Homo sapiens, UniProt Q13283)
Sequence of UniProt Q13283 (whole entry, looked up): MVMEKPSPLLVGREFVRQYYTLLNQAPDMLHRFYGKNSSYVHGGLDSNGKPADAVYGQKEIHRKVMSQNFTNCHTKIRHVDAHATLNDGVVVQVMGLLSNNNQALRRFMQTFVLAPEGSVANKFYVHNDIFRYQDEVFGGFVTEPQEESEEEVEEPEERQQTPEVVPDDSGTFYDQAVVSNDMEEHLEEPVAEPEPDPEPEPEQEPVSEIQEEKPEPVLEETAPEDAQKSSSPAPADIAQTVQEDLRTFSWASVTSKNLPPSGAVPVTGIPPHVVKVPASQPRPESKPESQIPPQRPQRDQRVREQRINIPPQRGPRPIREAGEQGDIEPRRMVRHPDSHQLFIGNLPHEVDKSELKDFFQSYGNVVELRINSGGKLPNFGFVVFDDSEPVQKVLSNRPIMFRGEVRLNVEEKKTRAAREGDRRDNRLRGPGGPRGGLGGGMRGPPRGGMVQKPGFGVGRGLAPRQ
Technique: RNA Bind-n-Seq
Molecule type: RNA
Sample: in vitro
Concentration: 200 nM
Setting: whole 134-nt RNA, ends assumed
Added: 150 mM LiCl
Relative to: input library
Reading: higher = stronger binding
All molecules: 7-deaza-guanosine replaces G
Constant ends, left off below: GGGAGUUCUACAGUCCGACGAUC … UGGAAUUCUCGGGUGUCAAGG
| Strand | log2 enrichment |
| --- | --- |
| CCUGUGCUACACAUCGUAUGUACCGAAUCAAAUUUUUUUAAACCCCCAAAUUUUUUUAAAAAAGUAUUAUGUUACGCCGUUCGGAUCUGC | -0.0289 |
| UUCCCACAGCCCAAAAAUCUUCUCAACAGUGUGAUUGGAAGAGCCCUCGGCAUCUCACAUGCAAAAGACAAACUAGUCUACGUGCACACA | 1.13 |
| UGGGAGGUGGAUUUUGUUUAUUUUUUUAGCUCAUUUCCAGGGGUGGGAAUUUUUUUUUAAUAUGUGUUAUGAAUAAAGUUGUUUUUGAAA | -0.404 |
| GGAAGGGGGCUUGCGCCACGGCAGUGAAUCUUCAUGGAUCUUCAUGCAGCCAUACAAACCCUGGUUCCAACAGAAUGGUGAAUUUUCGAC | -1.28 |
| AGUCCUGUGCUACACAUCGUAUGUACCGAAUCGGAAAAAGGGGAAAAAGGAAAAAGGGAAAGUAUUAUGUUACGCCGUUCGGAUCUGCAC | -0.48 |
| UAACUUUAGAGGAGGAUCUGAUGGAUAUGGCAGUGGACGUGGAUUUGGGGAUGGCUAUAAUGGGUAAGGAGGAGGACCUGGAGGUGGCAA | -0.105 |
| UCUCCCAUCAAAGGACGUGCACAGCCUUAUGAUCCCAAUUUUUACGAUGAAACCUAUGAUUAUGGUGGUUUUACAAUGAUGUUUGAUGAC | 1.03 |
| CCUGUGCUACACAUCGUAUGUACCGAAUCAAAUUUUUUUAAACCCCCCCAAACCCCCAAAAAAGUAUUAUGUUACGCCGUUCGGAUCUGC | 0.633 |
| GUCCUGUGCUACACAUCGUAUGUACCGAAUCGGUUUUUGGUUUUUGGGGUUUUUGGGGAAAGUAUUAUGUUACGCCGUUCGGAUCUGCAC | -0.0501 |
| GUCCUGUGCUACACAUCGUAUGUACCGAAUCAAAUUUUUAAACCCCCCCAAACCCAAAAAAGUAUUAUGUUACGCCGUUCGGAUCUGCAC | 0.82 |
| UCCUGUGCUACACAUCGUAUGUACCGAAUCGGGGCCCCCGGCCCCCGGGGCCCCCGGGGAAAGUAUUAUGUUACGCCGUUCGGAUCUGCA | -1.62 |

Block 3
Target: ABI1, truncated, D143A, DHFR fusion (Arabidopsis thaliana)
Technique: DHFR PCA, deep sequencing
Sample: yeast
Setting: methotrexate growth selection, single substitutions
Added: (+)-ABA 1.4 µM
Relative to: wild-type fitted maximum
Reading: higher = stronger binding
Starting sequence: PYL1, truncated, DHFR fusion (Arabidopsis thaliana); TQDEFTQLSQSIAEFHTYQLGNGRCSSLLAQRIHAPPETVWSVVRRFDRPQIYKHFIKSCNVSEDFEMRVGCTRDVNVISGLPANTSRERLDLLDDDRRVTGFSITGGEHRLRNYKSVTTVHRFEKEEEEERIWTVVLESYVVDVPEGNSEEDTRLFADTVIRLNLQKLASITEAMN
| Substitution | relative binding score |
| --- | --- |
| W134C | 66.4% |
| A35Q | -24.9% |
| I105L | -3.22% |
| Q19C | 41.2% |
| W41D | -19.9% |
| D92H | -2.68% |
| F15Y | 62.5% |
| N61C | 54.2% |
| I12R | 11.8% |
| E109Q | 42.7% |
| T1F | 44.9% |
| T6R | 68.3% |

Block 4
Target: RNA binding protein fox-1 homolog 2, RRM domain, GST-SBP tag (RBFOX2, Homo sapiens, UniProt O43251-10, residues 100-194)
Technique: RNA Bind-n-Seq
Molecule type: RNA
Sample: in vitro
Concentration: 365 nM
Setting: natural RNA segment, single round, ends assumed
Relative to: no-protein control
Reading: higher = stronger binding
Constant ends, left off below: GGGAGUUCUACAGUCCGACGAUC … UGGAAUUCUCGGGUGCCAA
Residues (chain): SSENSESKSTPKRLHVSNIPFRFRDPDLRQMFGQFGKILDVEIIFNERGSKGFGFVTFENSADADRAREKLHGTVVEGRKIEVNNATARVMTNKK
| Strand | RBNS enrichment (R) |
| --- | --- |
| CCCCCAAAAGGCUCAGGAGCUGACUUUUAGAAGUGAGGUUCAAAGUCUUUAACCACUUCUGAAUCUCAUAUGGCCUGUUGCUCUUGGUCUUGCUAGACUCCCGUUUGUUC | 0.44 |
| UGGGGGGCGCCGGGUGGCAAAGGACUCACCCCCGCACAGGCCCGCCUGGCUUCGAGUUGGAACCCGGACACUUGCCCCUCACUGGUGUGGAUGGAAAUCUGCCUUUCGUG | 0.294 |
| UCUCACAUUAAUAUCUGAAGUGCUUGUAUUAAAAGUAAAGAAAGGUAACUAAGGGAAUUUGUUUCAGUCUGGUUCUCCACUUACUAUACUGUGUUUUCAAGGUAAAUGGU | 0.311 |
| GGUACUGAAAAUAACAUGAUGCUUGCUUGGAGUAUGAUGCUAUGUCACCCAAGUCACAGGAUGAUUAUUAAAAGAACACACACACCAAAAAACAUACUUAUCCUAAAGAG | 0.566 |
| UAUUGAACAUAAUAACCAGUGUUUUUUAAAGACUUUUUUGUCAGGGUGCAGUAAAAUUCUCCAAUUACUUUUAUUCAUUUAUCUGCUUCCUAGUUUUAUUUUAGCCUUUA | 1.16 |
| GUGAUUGCAAUCCGUGUAUUUUGACCAAAGUUCUCUAUUUUUCCUUGACUAAAACAAGAUAAUGAGACAUAAUUUUCUUUAUAAUGUGUACAACACCUAAUAUACACUAA | 0.443 |
| UUAAGAAGCUCAUGACCAAGGGCCGCUACUCGCUGGAUGUAUGGAGCUAGGAGCUGCCGCCCCCCACCCCUCGCUCCCUGUAAUCACGUCCUUAACUUCCUUCUGCCGAC | 0.934 |
| GACUGAAGCACAUGUAAUAUAGACCGUGUAUGUUUACAAUGUUGUGUAUAAAUGGGACAACUCCUCGCCCUCUACCUGUCCCCUCCCCCUUUGGUUGUAUGAUUUUCUUC | 1.22 |
| CACCUUUCCUGUGGCCCAACCUUUUAUUUAAAUGUGCUACCCUCUGCCUCAAGGCUUGGUUCCUGGAAAGUAAAGGUGAAAACAUCCCCUUUCACCCCUCUGCAAAACAA | 0.842 |
| GCCCCAUCUGCAGGAGCCUGAAGAUCCAGCUCAAGUGCCAUCCUGCCAGUGGCCCCCAGACUGUGGGGUUGGGACGCCUGGCCUCUGUGUCCUAGAAGGGACCCUCCUGU | 0.388 |
| UCCUGCUGCUGUUACCAGCCAUGUGGGCCCCAUAGGGGCACUGCGCCUGCUGCCCUUUCCUGGCAGGGCUGGUGGAGUCUUCCCUCAAAGCAUGCCUUACCCAGCUGGGA | 1.02 |
| CUGAUUUGCUCUCAGCUGAUGUGUCCUGUACACAGUGGGAAGAUUUUAGUUCACACUUAGUCUAACUCCCCCAUUUUACAGAUUUCUCACUAUAUAUAUUUCUAGAAGGG | 0.511 |

For quick reference, copied from above (block 4):
| Strand | RBNS enrichment (R) |
| --- | --- |
| GACUGAAGCACAUGUAAUAUAGACCGUGUAUGUUUACAAUGUUGUGUAUAAAUGGGACAACUCCUCGCCCUCUACCUGUCCCCUCCCCCUUUGGUUGUAUGAUUUUCUUC | 1.22 |
| GGUACUGAAAAUAACAUGAUGCUUGCUUGGAGUAUGAUGCUAUGUCACCCAAGUCACAGGAUGAUUAUUAAAAGAACACACACACCAAAAAACAUACUUAUCCUAAAGAG | 0.566 |
| UGGGGGGCGCCGGGUGGCAAAGGACUCACCCCCGCACAGGCCCGCCUGGCUUCGAGUUGGAACCCGGACACUUGCCCCUCACUGGUGUGGAUGGAAAUCUGCCUUUCGUG | 0.294 |
| UCCUGCUGCUGUUACCAGCCAUGUGGGCCCCAUAGGGGCACUGCGCCUGCUGCCCUUUCCUGGCAGGGCUGGUGGAGUCUUCCCUCAAAGCAUGCCUUACCCAGCUGGGA | 1.02 |
| UCUCACAUUAAUAUCUGAAGUGCUUGUAUUAAAAGUAAAGAAAGGUAACUAAGGGAAUUUGUUUCAGUCUGGUUCUCCACUUACUAUACUGUGUUUUCAAGGUAAAUGGU | 0.311 |
| CCCCCAAAAGGCUCAGGAGCUGACUUUUAGAAGUGAGGUUCAAAGUCUUUAACCACUUCUGAAUCUCAUAUGGCCUGUUGCUCUUGGUCUUGCUAGACUCCCGUUUGUUC | 0.44 |
| GUGAUUGCAAUCCGUGUAUUUUGACCAAAGUUCUCUAUUUUUCCUUGACUAAAACAAGAUAAUGAGACAUAAUUUUCUUUAUAAUGUGUACAACACCUAAUAUACACUAA | 0.443 |
